Measurements from different studies.
Parts stem from different laboratories: compare values within a part only.
Chain of UniProt P10721 (whole entry, unmodified, looked up): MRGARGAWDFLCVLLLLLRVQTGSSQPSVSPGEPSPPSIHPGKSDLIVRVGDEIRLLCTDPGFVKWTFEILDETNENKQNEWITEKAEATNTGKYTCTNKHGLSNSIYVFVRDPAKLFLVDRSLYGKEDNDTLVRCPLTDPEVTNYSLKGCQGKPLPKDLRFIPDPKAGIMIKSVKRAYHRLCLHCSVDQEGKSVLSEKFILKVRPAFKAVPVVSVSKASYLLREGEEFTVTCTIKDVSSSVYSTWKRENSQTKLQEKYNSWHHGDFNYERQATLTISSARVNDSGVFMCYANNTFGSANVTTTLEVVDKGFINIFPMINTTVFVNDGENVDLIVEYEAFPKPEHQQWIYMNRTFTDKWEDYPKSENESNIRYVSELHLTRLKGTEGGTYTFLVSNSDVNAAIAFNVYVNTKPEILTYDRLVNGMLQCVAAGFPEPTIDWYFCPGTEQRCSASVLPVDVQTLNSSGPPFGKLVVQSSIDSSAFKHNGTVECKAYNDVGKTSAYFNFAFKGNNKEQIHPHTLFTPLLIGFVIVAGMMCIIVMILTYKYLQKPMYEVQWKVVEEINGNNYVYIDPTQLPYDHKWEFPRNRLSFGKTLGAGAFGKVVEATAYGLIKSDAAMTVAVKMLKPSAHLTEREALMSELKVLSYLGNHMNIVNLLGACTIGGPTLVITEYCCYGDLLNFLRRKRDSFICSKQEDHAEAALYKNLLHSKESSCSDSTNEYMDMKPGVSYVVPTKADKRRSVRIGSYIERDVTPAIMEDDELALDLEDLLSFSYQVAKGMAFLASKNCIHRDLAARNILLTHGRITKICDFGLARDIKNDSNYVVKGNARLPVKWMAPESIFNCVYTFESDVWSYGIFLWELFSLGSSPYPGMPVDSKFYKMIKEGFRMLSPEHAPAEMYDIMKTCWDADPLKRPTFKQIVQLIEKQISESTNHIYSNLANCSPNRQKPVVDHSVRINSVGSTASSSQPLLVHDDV
Chain of UniProt Q9H3Y6 (whole entry, looked up): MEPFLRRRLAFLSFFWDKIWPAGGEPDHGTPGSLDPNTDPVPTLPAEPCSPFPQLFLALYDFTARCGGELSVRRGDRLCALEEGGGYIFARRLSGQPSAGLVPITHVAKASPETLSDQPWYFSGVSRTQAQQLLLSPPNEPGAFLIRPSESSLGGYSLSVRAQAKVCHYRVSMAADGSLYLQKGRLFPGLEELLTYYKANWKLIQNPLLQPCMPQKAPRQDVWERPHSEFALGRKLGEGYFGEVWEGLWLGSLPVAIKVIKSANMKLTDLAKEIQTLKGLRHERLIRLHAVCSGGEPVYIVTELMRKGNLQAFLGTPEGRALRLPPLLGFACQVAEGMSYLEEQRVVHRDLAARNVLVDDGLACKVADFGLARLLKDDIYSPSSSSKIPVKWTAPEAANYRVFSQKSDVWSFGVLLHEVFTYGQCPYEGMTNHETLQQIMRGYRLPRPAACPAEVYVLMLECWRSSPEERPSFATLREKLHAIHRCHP
Chain of UniProt Q86UX6 (whole entry, looked up): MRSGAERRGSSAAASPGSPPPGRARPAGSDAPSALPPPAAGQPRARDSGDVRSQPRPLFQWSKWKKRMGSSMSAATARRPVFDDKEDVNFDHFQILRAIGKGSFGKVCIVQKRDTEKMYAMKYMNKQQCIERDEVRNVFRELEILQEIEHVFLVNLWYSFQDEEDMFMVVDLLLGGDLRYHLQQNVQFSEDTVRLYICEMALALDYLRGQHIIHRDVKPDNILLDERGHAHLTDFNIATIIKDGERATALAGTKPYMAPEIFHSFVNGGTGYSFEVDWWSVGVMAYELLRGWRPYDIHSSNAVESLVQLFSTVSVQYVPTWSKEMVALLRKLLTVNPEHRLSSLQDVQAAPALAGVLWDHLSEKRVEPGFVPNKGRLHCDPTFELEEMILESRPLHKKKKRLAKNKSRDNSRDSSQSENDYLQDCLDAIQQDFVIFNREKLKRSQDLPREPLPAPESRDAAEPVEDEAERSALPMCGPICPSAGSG
Chain of UniProt P30411 (whole entry, looked up): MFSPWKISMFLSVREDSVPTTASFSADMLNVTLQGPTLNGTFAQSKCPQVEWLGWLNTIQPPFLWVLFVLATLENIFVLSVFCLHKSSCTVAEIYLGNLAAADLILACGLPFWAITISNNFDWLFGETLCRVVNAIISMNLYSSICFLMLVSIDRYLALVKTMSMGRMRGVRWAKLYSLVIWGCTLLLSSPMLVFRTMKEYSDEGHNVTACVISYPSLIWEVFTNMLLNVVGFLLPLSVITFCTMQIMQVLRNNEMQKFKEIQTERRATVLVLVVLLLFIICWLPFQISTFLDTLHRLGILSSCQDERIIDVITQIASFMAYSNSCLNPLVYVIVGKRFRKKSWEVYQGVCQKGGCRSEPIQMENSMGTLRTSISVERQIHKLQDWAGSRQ
Chain of UniProt P14616 (whole entry, looked up): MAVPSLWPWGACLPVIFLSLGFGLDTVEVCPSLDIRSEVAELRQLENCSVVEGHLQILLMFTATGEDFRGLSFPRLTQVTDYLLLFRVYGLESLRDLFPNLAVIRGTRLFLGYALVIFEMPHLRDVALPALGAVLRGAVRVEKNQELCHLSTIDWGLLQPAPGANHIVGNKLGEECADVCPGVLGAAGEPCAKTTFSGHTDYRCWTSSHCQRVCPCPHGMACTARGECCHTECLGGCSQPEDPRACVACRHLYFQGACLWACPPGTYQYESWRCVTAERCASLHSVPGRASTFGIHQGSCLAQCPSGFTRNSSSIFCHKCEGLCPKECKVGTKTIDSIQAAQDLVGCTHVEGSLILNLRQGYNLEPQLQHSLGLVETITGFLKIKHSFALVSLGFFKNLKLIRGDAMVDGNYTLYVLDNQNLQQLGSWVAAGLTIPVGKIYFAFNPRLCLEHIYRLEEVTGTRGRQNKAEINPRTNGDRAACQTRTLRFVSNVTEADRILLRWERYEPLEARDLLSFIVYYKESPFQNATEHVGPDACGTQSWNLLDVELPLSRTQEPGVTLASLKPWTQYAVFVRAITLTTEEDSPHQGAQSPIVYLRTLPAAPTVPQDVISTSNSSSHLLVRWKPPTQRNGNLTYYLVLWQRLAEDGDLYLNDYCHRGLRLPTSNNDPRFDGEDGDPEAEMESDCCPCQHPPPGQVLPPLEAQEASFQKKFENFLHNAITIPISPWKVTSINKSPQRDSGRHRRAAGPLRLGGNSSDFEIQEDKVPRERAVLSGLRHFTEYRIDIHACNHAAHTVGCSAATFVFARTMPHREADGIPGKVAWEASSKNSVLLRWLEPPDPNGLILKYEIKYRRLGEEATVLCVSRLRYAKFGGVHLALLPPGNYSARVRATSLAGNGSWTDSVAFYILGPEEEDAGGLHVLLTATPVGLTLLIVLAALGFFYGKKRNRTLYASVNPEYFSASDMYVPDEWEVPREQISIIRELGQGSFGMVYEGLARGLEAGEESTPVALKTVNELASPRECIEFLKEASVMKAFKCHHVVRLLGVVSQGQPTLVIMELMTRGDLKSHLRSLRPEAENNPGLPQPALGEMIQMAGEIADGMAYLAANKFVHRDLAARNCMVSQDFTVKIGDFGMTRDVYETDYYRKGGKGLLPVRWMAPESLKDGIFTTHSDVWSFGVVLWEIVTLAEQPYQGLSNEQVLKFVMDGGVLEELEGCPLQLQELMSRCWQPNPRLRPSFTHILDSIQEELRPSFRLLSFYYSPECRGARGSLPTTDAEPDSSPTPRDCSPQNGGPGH

Block 1
Target: Calcium/calmodulin-dependent protein kinase type II subunit alpha (CAMK2A, Homo sapiens, UniProt Q9UQM7)
Chain of UniProt Q9UQM7 (whole entry, looked up): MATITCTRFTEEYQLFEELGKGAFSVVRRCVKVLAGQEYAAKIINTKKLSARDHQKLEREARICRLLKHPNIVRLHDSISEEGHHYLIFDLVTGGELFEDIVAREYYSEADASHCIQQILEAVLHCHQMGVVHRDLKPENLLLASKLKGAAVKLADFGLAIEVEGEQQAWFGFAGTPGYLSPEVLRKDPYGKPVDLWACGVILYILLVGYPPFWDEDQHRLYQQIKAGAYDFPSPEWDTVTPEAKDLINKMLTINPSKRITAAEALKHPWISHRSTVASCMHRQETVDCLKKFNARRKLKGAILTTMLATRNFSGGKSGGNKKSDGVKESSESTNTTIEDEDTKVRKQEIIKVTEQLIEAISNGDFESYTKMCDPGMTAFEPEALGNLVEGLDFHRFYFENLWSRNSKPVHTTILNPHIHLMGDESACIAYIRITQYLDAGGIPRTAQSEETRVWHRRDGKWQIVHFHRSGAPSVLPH
Read-out: enzyme activity
Action: inhibitor
Tested at: 10 µM
Measurement: inhibition
CCCCCCCCCCCCCCCCCCCCC(=O)O: -72%
CC(N)=O: -10%
CCCCCCCCCCCCCC(=O)O[C@H](CC(=O)[O-])C[N+](C)(C)C: 17%
O=C(O)c1cccnc1: 61%
CCn1cnc2c(N)ncnc21: 7%
Oc1cc(O)c2c(c1)O[C@H](c1ccc(O)c(O)c1)[C@H](O)[C@H]2c1c(O)cc(O)c2c1O[C@H](c1ccc(O)c(O)c1)[C@H](O)[C@H]2c1c(O)cc(O)c2c1O[C@H](c1ccc(O)c(O)c1)[C@H](O)C2: 5%
c1cc2c(cc1O[C@H]1OC[C@H]3[C@@H]1CO[C@@H]3c1ccc3c(c1)OCO3)OCO2: 34%
COc1ccc(CCN(C)CCC[C@](C#N)(c2ccc(OC)c(OC)c2)C(C)C)cc1OC: -7%
CC(C)(Sc1cc(C(C)(C)C)c(O)c(C(C)(C)C)c1)Sc1cc(C(C)(C)C)c(O)c(C(C)(C)C)c1: -1%
C/C=C/C[C@@H](C)[C@@H](O)[C@H]1C(=O)N[C@@H](C(C)C)C(=O)N(C)CC(=O)N(C)[C@@H](CC(C)C)C(=O)N[C@@H](C(C)C)C(=O)N(C)[C@@H](CC(C)C)C(=O)N[C@@H](C)C(=O)N[C@H](C)C(=O)N(C)[C@@H](CC(C)C)C(=O)N(C)[C@@H](CC(C)C)C(=O)N(C)[C@@H](C(C)C)C(=O)N1C: -15%
C[C@@H]1O[C@@H](O[C@H]2[C@H](O)[C@@H](O)[C@H](O[C@H]3CC[C@]4(C)[C@H]5C=C[C@]67OC[C@@]8(CCC(C)(C)C[C@H]86)[C@@H](O)C[C@@]7(C)[C@]5(C)CC[C@H]4C3(C)C)O[C@@H]2CO[C@@H]2O[C@H](CO)[C@@H](O)[C@H](O)[C@H]2O)[C@H](O)[C@H](O)[C@H]1O: 8%

Block 2
Target: Muscle, skeletal receptor tyrosine-protein kinase (MUSK, Homo sapiens, UniProt O15146)
Chain of UniProt O15146 (whole entry, looked up): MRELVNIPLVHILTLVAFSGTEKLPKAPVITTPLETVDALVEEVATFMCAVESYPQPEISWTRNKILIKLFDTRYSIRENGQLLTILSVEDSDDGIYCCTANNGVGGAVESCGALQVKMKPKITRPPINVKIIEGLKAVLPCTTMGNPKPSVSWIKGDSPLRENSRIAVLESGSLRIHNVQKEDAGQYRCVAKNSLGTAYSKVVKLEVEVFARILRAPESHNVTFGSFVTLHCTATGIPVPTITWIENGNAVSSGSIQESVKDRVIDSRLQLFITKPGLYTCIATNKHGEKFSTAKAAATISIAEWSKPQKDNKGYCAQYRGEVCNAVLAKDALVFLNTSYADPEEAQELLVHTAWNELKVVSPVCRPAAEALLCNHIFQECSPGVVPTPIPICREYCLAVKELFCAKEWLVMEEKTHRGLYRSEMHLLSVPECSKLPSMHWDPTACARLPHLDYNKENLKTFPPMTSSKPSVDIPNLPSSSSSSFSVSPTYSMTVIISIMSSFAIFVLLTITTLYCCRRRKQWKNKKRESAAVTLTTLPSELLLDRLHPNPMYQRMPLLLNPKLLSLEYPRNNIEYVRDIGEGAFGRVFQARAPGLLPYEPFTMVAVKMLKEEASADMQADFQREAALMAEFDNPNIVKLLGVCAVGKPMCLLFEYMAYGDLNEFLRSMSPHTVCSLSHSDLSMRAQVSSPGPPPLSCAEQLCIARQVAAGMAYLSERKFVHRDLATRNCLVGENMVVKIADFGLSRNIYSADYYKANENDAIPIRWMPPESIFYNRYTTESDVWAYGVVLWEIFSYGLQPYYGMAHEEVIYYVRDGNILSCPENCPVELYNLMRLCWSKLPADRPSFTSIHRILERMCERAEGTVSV
Read-out: enzyme activity
Action: inhibitor
Tested at: 0.5 µM
Baseline: control
Measurement: remaining activity
N#C/C(=C\c1ccc(O)c(O)c1)C(=O)NCc1ccccc1: 97.9%
O=C1C(Cl)=C(N2C(=O)CCC2=O)C(=O)c2ccccc21: 104%
COc1cc2c(cc1OC)-c1[nH]nc(Nc3cccc(F)c3)c1C2: 82.7%
Ic1cccc(CSc2nnc(-c3ccncc3)o2)c1: 94.1%
c1ccc(-c2[nH]ncc2-c2ccnc3ccccc23)nc1: 93.4%
O=C(NC(NC(=S)Nc1ccc(F)c([N+](=O)[O-])c1)C(Cl)(Cl)Cl)C(c1ccccc1)c1ccccc1 (stereo not drawn): 106%
Cc1nc2cc3nc(-c4cccs4)cnc3cc2n1C: 90.6%
CCN(CC)C(=O)c1ccc(Nc2nc(OCC3CCCCC3)c3[nH]cnc3n2)cc1: 77.5%
COc1cc2ncnc(Nc3cccc(Cl)c3)c2cc1OC: 88.3%
CCOc1nc(NC(=O)Cc2cc(OC)ccc2OC)cc(N)c1C#N: 104%
Cc1cc2ncc(-c3ccccc3)nc2cc1C: 102%
Cc1cn(-c2cc(NC(=O)c3ccc(C)c(Nc4nccc(-c5cccnc5)n4)c3)cc(C(F)(F)F)c2)cn1: 91.1%
O=C1c2ccccc2-c2n[nH]c3cccc1c23: 62.2%
C[C@@H]1CCN(C(=O)CC#N)C[C@@H]1N(C)c1ncnc2[nH]ccc12: 103%
CCN(CC)CCNC(=O)c1c(C)[nH]c(/C=C2\C(=O)Nc3ccc(F)cc32)c1C: 51.3%
COc1cc2ncnc(Nc3ccc(O)c(Br)c3)c2cc1OC: 78.2%
CCN(CC)CCNC(=O)c1c(C)[nH]c(/C=C2\C(=O)Nc3ccc(Cl)cc32)c1C: 63.5%
CN([C@@H](Cc1ccc(OS(=O)(=O)c2cccc3cnccc23)cc1)C(=O)N1CCN(c2ccccc2)CC1)S(=O)(=O)c1cccc2cnccc12: 92.7%
Nc1cccc(-c2cc3c(Oc4cccc(O)c4)ncnc3[nH]2)c1: 62.8%
N#Cc1c(NC(=O)c2cccc3ccccc23)sc2c1CCCC2: 94.8%
O=C(Nc1cccc(Nc2nccc(Nc3cccc(C(F)(F)F)c3)n2)c1)C1CC1: 101%
c1ccc(-c2cnc(Nc3ccc(OCCN4CCCC4)cc3)s2)cc1: 84.2%
O=c1cc(-c2cccc3c2Sc2ccccc2S3)oc(N2CCOCC2)c1: 89.1%

Block 3
SMILES: O=C(O)[C@H]1[C@H](Cn2nnc3ccccc3c2=O)CC[C@@H]1C(=O)c1ccc(OCCC2CCOCC2)cc1
Read-out: cell-free assay
Technique: competition with immobilised ligand
Tested at: 1 µM
Measurement: remaining binding
Tyrosine-protein kinase ABL1, non-phosphorylated (ABL1, Homo sapiens, UniProt P00519, Q252H): 98%
RET (Homo sapiens, UniProt P07949, V804L): 77%
PAK3 (Homo sapiens, UniProt O75914): 86%
MAPK3 (Homo sapiens, UniProt P27361): 94%
WEE2 (Homo sapiens, UniProt P0C1S8): 100%
SRMS (Homo sapiens, UniProt Q9H3Y6): 100%
TLK1 (Homo sapiens, UniProt Q9UKI8): 96%
EGFR (Homo sapiens, UniProt P00533, G719S): 87%
CSK (Homo sapiens, UniProt P41240): 100%
STK32C (Homo sapiens, UniProt Q86UX6): 89%
ERBB2 (Homo sapiens, UniProt P04626): 100%
INSRR (Homo sapiens, UniProt P14616): 81%
KIT (Homo sapiens, UniProt P10721, T670I/V559D): 69%
Mast/stem cell growth factor receptor Kit, autoinhibited (KIT, Homo sapiens, UniProt P10721): 95%
PRKACA (Homo sapiens, UniProt P17612): 97%
PRKACB (Homo sapiens, UniProt P22694): 95%
Tyrosine-protein kinase ABL1, phosphorylated (ABL1, Homo sapiens, UniProt P00519, F317L): 81%

Block 4
Structure (SMILES): CC(C)CN(C)c1nc(N)c(C(=O)N=C(N)N)nc1Cl
Read-out: β-arrestin recruitment
Action: agonist
Technique: PRESTO-Tango
Tested at: 10 µM
Baseline: untreated
Measurement: fold over basal
SUCNR1 (Homo sapiens, UniProt Q9BXA5): 1.18 fold
PROKR2 (Homo sapiens, UniProt Q8NFJ6): 0.74
ADRB3 (Homo sapiens, UniProt P13945): 0.64
FPR1 (Homo sapiens, UniProt P21462): 0.59 fold
Mas-related G-protein coupled receptor member E (MRGPRE, Homo sapiens, UniProt Q86SM8): 1.14
CMKLR1 (Homo sapiens, UniProt Q99788): 0.38
C5AR1 (Homo sapiens, UniProt P21730): 0.69
G protein-coupled receptor 88 (Homo sapiens, UniProt Q9GZN0): 1.53
GPR35 (Homo sapiens, UniProt Q9HC97): 1.08
HTR1A (Homo sapiens, UniProt P08908): 1.22
PTH1R (Homo sapiens, UniProt Q03431): 0.48
BDKRB1 (Homo sapiens, UniProt P46663): 1.03
ADORA3 (Homo sapiens, UniProt P0DMS8): 1.03
SSTR4 (Homo sapiens, UniProt P31391): 1.38 fold
BDKRB2 (Homo sapiens, UniProt P30411): 0.77
ADGRG3 (Homo sapiens, UniProt Q86Y34): 0.92
P2Y purinoceptor 1 (P2RY1, Homo sapiens, UniProt P47900): 0.5
Adhesion G protein-coupled receptor A3 (ADGRA3, Homo sapiens, UniProt Q8IWK6): 1.08

For quick reference, copied from above (block 4):
ADGRG3 (Homo sapiens, UniProt Q86Y34): 0.92
P2Y purinoceptor 1 (P2RY1, Homo sapiens, UniProt P47900): 0.5
FPR1 (Homo sapiens, UniProt P21462): 0.59 fold
BDKRB1 (Homo sapiens, UniProt P46663): 1.03
PROKR2 (Homo sapiens, UniProt Q8NFJ6): 0.74
